Assay results collected from several papers.
Parts stem from different laboratories: compare values within a part only.

Series 1
Target: Centromere-binding protein 1, full length, N-terminal tag (CBF1, Saccharomyces cerevisiae, UniProt P17106, residues 1-351)
Chain of UniProt P17106 (whole entry, looked up): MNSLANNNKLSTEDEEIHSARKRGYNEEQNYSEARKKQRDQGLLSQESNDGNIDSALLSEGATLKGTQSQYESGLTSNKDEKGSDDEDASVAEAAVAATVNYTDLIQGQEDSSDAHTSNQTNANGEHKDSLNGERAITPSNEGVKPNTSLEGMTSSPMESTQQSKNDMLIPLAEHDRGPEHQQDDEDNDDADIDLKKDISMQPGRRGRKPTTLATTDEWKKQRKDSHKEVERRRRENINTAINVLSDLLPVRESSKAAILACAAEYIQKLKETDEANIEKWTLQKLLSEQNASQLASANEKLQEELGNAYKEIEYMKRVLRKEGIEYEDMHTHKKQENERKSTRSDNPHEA
Method: protein-binding microarray
Molecule type: double-stranded DNA, one strand shown
Sample: in vitro
Concentration: 0.8 µM
Notes: whole 60-bp probe, no competitor
Direction: higher = stronger binding
Quantity: fluorescence intensity
Sequence = GAAGGTTCATTCCTAATTGTGACCAATGTAATATAGGTCTTGATTCGCTTGACGCTGCTG; result = 543 a.u.
Sequence = GAAATATTGCGAAGTGACGTCAAGAATCGACTTTAGGTCTTGATTCGCTTGACGCTGCTG; result = 540 a.u.
Sequence = CTATCACGGAACATAACCGTGATTGAAAATTACTTCGTCTTGATTCGCTTGACGCTGCTG; result = 881 a.u.

Series 2
Target: PABPC1L2, full length, GST fusion (mouse, UniProt A0ABA7IW68)
Method: RNAcompete
Molecule type: RNA
Sample: in vitro
Concentration: 20 nM
Notes: 7-mer, probes averaged, single round
Baseline: mean of 7-mers
Direction: higher = stronger binding
Quantity: 7-mer Z-score
Residues (chain): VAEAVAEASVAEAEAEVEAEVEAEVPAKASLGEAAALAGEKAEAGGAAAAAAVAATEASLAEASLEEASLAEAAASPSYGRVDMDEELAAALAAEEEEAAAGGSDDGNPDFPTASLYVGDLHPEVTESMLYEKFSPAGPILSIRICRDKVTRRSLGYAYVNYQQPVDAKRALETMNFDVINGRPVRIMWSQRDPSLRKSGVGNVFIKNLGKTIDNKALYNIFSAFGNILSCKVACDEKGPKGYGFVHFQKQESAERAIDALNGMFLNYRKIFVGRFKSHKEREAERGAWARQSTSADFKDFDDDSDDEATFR
Sequence = UCGUCGG; result = -0.3
Sequence = CCCCGGG; result = -0.436
Sequence = CGGGGAU; result = 0.131

Series 3
Target: Interferon regulatory factor 7, full length, phosphomimetic (IRF7, Homo sapiens, UniProt Q92985, residues 1-503, S471D/S472D/S475D/S476D/S477D/S483D/S484D/S487D)
Chain of UniProt Q92985 (whole entry, unmodified, looked up): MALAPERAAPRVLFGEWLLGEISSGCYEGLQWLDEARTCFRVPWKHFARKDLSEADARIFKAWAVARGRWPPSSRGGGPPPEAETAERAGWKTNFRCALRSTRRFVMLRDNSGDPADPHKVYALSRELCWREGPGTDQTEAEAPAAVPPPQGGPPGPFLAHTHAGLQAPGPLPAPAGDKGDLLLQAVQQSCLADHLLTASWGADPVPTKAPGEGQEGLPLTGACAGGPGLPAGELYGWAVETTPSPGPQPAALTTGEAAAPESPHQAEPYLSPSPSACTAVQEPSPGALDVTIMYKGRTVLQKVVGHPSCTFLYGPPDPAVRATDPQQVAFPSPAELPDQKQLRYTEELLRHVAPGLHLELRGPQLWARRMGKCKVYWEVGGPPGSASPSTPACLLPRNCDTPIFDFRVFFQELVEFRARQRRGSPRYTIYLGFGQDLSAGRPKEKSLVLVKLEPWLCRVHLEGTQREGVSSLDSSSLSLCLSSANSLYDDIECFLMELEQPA
Method: protein-binding microarray
Molecule type: double-stranded DNA, one strand shown
Sample: in vitro
Concentration: 2200 nM top
Notes: 60-bp whole probe
Added: salmon DNA 0.4 mg/ml
Baseline: random background probes
Direction: higher = stronger binding
Quantity: fitted relative affinity
Sequence = GCCTAGCACTTAGAATTGGGGTATCGATTAGTGCTAGTCTTGATTCGCTTGACGCTGCTG; result = 0.0596 z-score
Sequence = GCCTAGCACATTCTCTTCTTGCATCTGGGTGTGCTAGTCTTGATTCGCTTGACGCTGCTG; result = 2.5 z-score
Sequence = GCCTAGCACTTAGGTCTCCTTTTCCTTTGGTGCTAGGTCTTGATTCGCTTGACGCTGCTG; result = 2.16 z-score
Sequence = GCCTAGCACGACGATATCAGTTTCGAGAAGTGCTAGGTCTTGATTCGCTTGACGCTGCTG; result = 1.79 z-score

Mixed results
Molecule = PhoQ, residues 284 288 289 292 302 303 AANNSF; target = PhoP, residues 12 14 15 18 19 LYHSL (Escherichia coli, UniProt P23836); assay = Sort-seq, measured: YFP reporter; system = E. coli; conditions = PhoQ-PhoP variant library, added: 10 µM Mg2+; how to read = baseline: high Mg2+ state, higher = stronger signaling; quantity = fold induction; result = 21.4

Some of these lines once more (series 2):
Sequence = UCGUCGG; result = -0.3
